Published values from different studies.
Parts stem from different laboratories: compare values within a part only.

Block 1
Target: Fragile X messenger ribonucleoprotein 1, C-terminal low-complexity region (Fmr1, Mus musculus, UniProt P35922)
Technique: RNA Bind-n-Seq
Molecule type: RNA
Sample: in vitro
Concentration: 200 nM
Setting: whole 134-nt RNA, ends assumed
Added: 150 mM LiCl
Reference: input library
Reading: higher = stronger binding
Measurement: log2 enrichment
Each molecule: 7-deaza-guanosine replaces G
All sequences stand within: GGGAGUUCUACAGUCCGACGAUC … UGGAAUUCUCGGGUGUCAAGG
UGUGCUACACAUCGUAUGUACCGAAUCGGGGAAAAAAAGGGGAAAAAAAGGGGAAAAAGGGGAAAGUAUUAUGUUACGCCGUUCGGAUCU: 1.01
UCUGAGCAAUUGAAUGCCCUAAACAAGGCUUACCAUGACCUUUGUGAUGGUUCUGCAAAUCAGCUUCAGCAGCUUCAGAGCCAGUUGGCU: -3.34
AGUCCUGUGCUACACAUCGUAUGUACCGAAUCGGGUUUUUGGGAAAAAGGGAAAGGGAAAGUAUUAUGUUACGCCGUUCGGAUCUGCACU: -1.94
GUCCUGUGCUACACAUCGUAUGUACCGAAUCGGCCCCCGGCCCCCGGGGCCCCCGGGGAAAGUAUUAUGUUACGCCGUUCGGAUCUGCAC: -1.8
ACCAUGCAGGUGGGCAUCUUUGGGAAGUGGGGCAAGGGGGGGCUAGGGAGGGGGGUAACACUUUGGGAACAGGUGGUCCCAGGUCGUUUC: 0.927
CCUCAAGUCCUGUGCUACACAUCGUAUGUACCGAAUCGGAGGUUUUUGGUGGAAAGUAUUAUGUUACGCCGUUCGGAUCUGCACUUCCAG: -0.687
UCUUCCGUGACAUUUCAUUUGGGGAACAACUUUUCUCUUUACAGGCCCGAGUGACUAAGGGAUGUACCAUUGUUAAGCCUUUCAACCUGU: 1.24
UGGGAGGUGGAUUUUGUUUAUUUUUUUAGCUCAUUUCCAGGGGUGGGAAUUUUUUUUUAAUAUGUGUCAUGAAUUAAGUUGUUUUUGAAA: 0.324

Block 2
Target: Histone acetyltransferase KAT6A, both winged helices, GST fusion (KAT6A, Homo sapiens, UniProt Q92794, residues 1-181)
Technique: protein binding microarray
Molecule type: double-stranded DNA, one strand shown
Sample: in vitro
Concentration: not given
Setting: 8-mer, flanks averaged, mean of 2 arrays, mostly near background
Reference: not given
Reading: higher = stronger binding
Measurement: E-score
Construct (chain): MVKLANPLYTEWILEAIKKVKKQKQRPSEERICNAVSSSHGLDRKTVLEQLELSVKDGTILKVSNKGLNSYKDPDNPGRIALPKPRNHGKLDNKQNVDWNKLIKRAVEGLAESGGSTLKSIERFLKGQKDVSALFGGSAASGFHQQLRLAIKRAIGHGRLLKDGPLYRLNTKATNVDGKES
CGATTGGC: -0.0744
CAAAGTGG: -0.266
CCTGAAGA: -0.0726
ACTACCGA: 0.0511
CCACCACA: -0.178
ACAGCCGT: 0.237
AATACAGT: -0.167
CACCTTAA: -0.0644
CCGTAGCA: 0.225
GTCGATTA: -0.0687
ACGATACG: 0.0367
CTTGAAAA: -0.14
GCCAGTAA: -0.0911
ATCTTGAC: -0.156
ATTGGTAA: 0.00893
AAGGTGAA: -0.0594
ACGGTAGG: 0.054
CGAACATA: -0.12
AGTCAAAA: -0.0611
ACCGAAAA: -0.21
GCAAGCTA: -0.0709
CACTAAGG: -0.0536
ATTACCGG: 0.184
GCTACGTA: 0.0529
CCTACCCC: -0.148

Block 3
Target: RING finger protein unkempt homolog, zinc fingers 1-6, GST-SBP tag (UNK, Homo sapiens, UniProt Q9C0B0, residues 30-357)
Chain of UniProt Q9C0B0 (30-357, looked up): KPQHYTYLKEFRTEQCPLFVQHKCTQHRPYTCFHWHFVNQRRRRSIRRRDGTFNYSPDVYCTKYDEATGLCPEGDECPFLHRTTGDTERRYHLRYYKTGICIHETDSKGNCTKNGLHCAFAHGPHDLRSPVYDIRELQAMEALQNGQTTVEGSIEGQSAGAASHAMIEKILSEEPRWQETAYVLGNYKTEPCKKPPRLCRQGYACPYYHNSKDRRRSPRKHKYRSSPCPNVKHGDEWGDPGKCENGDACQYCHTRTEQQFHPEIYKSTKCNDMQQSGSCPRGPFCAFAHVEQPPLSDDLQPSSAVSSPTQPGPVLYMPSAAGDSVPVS
Technique: RNA Bind-n-Seq
Molecule type: RNA
Sample: in vitro
Concentration: not given
Setting: RNA with constant flanks, human and mouse sites, ends assumed
Reference: input RNA pool
Reading: higher = stronger binding
Measurement: bound/input enrichment
All sequences stand within: GGGAGUUCUACAGUCCGACGAUC … CAACAGAGGAUUGAGCAUCA
AACCUCAAUGAAGAUUUGGAGGGCAGAUCCUUUCUGGUGACUUUUUGGCCUUUUCUUUUUCUUUUCUUUUUUUUUUUUUCAAAUGUGCAAGUUAGAAGACAAGUGAAAGGAGUGGAAAGU: 0.166 ratio
UGGGAUGCCUCCACAGAUGCACCUGAAAAGUCUUCUCUCUUUCACCAAGGAGGAAGAAGUAGUACUUUCCUGUCACAUAGCUUAAGUAACCAGGCCGGUGUUCACCAGUCUCUAGUAAGU: 0.553 ratio
CAGCAGAGGUUGAUCUUUGCUGGGAAACAGCUGGAAGAUGGACGCACCCUGUCUGACUACAACAUCCAGAAAGAGUCCACUCUGCACUUGGUCCUGCGCUUGAGGGGGGGUGUCUAAGUU: 0.108 ratio
UUUUCUAAAACUGACAACCAGGUGGGACCAAAGUUUAUGUGCCUUUAGUCUUAAUUUACCUUGCAUUGUAAUAUUCAGUUUUAAUAAAUCUUCAAAAUAUUUUGUAUUUAGGAAUAGAUC: 0.743 ratio
GUGAAGAACACCAUCUACUGCAACGUGGAGCCAUCGGAAUCAAAUAUGCGCUGGGCACCUGAGUUCAUGAUCGACACUCUAGAGAACCCUGCAGCUCACACCUUCACCUACACGGGGCUA: 0.131 ratio
GCAGGAGAUGAAAUUCUUCCUACCUUACUAUAUAUUUGGACUCAACAUAGACUUAAUGAUUCUUUAAAAGAAGUAAUUAUUGAACUAAUUCAACUGCAGAUUUAUAUCCAUCAUCCACAA: 0.933 ratio
AGAGCCAACGAUUGACUGCACGGCAGAGGCGCAGCUGGCCUGAGCUGGGGAGAGGUGGCAGAGGGCAGUAUGGCUUUGCUGCCAAUAGUUUCUUCUCACAGGGGCAGAAUAACCCAAAGU: 0.106 ratio
ACAAUUGCUUUGCUUGGUUACCUGAAACACUACCGAAAUAUUCCUGGACCUCACAUGGUUUUAGUUCCAAAGUCUACUUUACACAACUGGAUGAAUGAAUUUAAACGAUGGGUCCCAUCU: 0.128 ratio

Block 4
Target: Sal-like protein 4, full length isoform A (SALL4, Homo sapiens, UniProt Q9UJQ4, residues 1-1053)
Chain of UniProt Q9UJQ4 (whole entry, looked up): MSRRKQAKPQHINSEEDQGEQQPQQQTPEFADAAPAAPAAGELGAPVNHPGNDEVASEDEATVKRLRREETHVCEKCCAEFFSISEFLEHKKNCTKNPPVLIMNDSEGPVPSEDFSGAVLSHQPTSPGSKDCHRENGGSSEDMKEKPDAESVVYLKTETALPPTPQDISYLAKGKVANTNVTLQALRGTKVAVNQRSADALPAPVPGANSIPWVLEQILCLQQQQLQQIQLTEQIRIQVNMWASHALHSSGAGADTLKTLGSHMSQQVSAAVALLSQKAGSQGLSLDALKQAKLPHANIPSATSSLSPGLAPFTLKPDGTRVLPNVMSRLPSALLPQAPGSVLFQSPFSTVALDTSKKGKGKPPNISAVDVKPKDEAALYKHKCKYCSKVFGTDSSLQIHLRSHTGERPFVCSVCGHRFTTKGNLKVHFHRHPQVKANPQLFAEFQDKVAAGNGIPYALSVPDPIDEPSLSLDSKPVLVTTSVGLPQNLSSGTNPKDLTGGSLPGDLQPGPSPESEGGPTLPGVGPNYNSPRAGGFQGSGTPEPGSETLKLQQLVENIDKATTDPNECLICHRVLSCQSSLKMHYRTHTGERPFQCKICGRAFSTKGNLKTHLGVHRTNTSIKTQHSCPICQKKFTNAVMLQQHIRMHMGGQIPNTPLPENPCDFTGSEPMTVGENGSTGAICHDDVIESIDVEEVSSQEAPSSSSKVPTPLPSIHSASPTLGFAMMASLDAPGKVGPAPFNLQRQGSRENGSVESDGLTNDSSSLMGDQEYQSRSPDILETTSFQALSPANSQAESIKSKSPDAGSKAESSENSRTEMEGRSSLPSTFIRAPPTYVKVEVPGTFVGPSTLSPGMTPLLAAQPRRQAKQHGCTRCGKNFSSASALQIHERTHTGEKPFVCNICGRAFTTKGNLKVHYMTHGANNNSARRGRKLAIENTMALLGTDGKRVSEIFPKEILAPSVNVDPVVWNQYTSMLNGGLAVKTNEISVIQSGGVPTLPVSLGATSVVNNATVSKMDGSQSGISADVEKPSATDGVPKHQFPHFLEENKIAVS
Technique: universal PBM
Molecule type: double-stranded DNA, one strand shown
Sample: in vitro
Concentration: 600 nM
Setting: 8-mer, flanks averaged, mean of replicates
Reading: higher = stronger binding
Measurement: E-score
CAACGAAG: -0.0269
AGCACCAC: -0.326
GGGCCGTA: -0.233
AGGATGGC: -0.163
GACTGTAC: -0.0948
AAAATACC: 0.183
CTCGTTGA: -0.0688
CGAGCCAC: -0.272
CACACATA: 0.193
ATCCGCTC: -0.311
AGTAACGC: -0.00801
GAGGCACA: -0.0802
ATAGGCGC: 0.0277
ACGTGCAG: -0.0441
AATCGCGC: -0.0508
AACAACTT: 0.0818
GTATAAGA: 0.246
CATGTCGG: -0.144
CGGCCGAG: -0.22
CATGCTAC: -0.209
CATCCAGC: -0.0458
AAGGATAG: 0.154
GCTCCAGC: -0.226
AAGCTACG: -0.0605
GAAAGATC: -0.151

Excerpt of the above (block 2):
AATACAGT: -0.167
CACCTTAA: -0.0644
CCGTAGCA: 0.225
GTCGATTA: -0.0687
ACGATACG: 0.0367
CTTGAAAA: -0.14
